Results gathered from unrelated publications.
Each line is one published result; not all experiments were run side by side. Several values in a cell are separate wells, animals, samples, runs or records. pIC50: −log10 of the molar value. Values after ≈ are worked out from the molar mass of the structure shown.
Chain of UniProt P00519 (whole entry, unmodified, looked up): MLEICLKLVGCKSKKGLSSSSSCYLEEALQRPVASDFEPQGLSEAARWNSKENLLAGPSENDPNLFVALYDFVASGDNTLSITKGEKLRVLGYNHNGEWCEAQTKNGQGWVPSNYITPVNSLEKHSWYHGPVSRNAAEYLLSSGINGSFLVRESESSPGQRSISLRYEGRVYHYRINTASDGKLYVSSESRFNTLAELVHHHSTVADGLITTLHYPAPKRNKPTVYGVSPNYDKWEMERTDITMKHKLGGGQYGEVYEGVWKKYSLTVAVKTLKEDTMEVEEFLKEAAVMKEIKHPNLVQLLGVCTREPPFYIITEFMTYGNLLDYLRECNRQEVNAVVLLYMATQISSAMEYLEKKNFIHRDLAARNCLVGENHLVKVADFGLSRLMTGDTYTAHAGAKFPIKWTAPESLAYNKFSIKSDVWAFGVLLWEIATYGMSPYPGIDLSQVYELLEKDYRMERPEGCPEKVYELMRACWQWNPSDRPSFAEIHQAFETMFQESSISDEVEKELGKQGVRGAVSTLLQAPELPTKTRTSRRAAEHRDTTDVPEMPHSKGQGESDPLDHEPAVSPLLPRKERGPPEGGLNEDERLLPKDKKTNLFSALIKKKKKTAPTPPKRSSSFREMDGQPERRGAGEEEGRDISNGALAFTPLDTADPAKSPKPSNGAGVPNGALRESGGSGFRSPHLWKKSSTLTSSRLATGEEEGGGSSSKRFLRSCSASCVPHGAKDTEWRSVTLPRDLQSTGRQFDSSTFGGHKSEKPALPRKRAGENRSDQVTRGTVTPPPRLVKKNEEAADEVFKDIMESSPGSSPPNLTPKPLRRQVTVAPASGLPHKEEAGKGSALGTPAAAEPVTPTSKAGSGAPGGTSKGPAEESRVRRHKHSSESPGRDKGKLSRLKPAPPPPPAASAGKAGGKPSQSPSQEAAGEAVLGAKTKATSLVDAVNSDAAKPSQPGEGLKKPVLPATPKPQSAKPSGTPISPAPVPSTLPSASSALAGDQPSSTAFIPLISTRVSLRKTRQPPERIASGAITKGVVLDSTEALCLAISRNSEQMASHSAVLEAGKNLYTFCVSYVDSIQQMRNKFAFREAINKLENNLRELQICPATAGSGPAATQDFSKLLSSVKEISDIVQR

Structure (SMILES) | tested on | test | system | setting | scale | endpoint | result
O=c1[nH]cc(C(c2ccccc2Br)c2c[nH]c(=O)[nH]c2=O)c(=O)[nH]1 | HIV-1 subtype C | p24 antigen production, p24 ELISA |  | 62.5 µg/mL |  | inhibition | 39%
CC1=NN(c2ccccc2F)C(=O)/C1=N\Nc1ccc(S(N)(=O)=O)cc1 | Saccharomyces cerevisiae |  |  | 50 µg/mL |  | glucose uptake | 41.1%
Nc1nc(-c2ccccc2)nc2[nH]nc(Nc3ccc([N+](=O)[O-])cc3)c12 | rhinovirus B5 | viral cytopathic effect | HeLa |  |  | pIC50 | 6.85
Cc1ccc2c(c1)sc(-c1ccc(N(C)C)cc1)[n+]2C | Trypanosoma cruzi | reporter mRNA translation, inhibitor, item: capped polyadenylated Renilla luciferase mRNA | cell-free extract | concentration not given | baseline: control RNA | relative translation | 83.9%
O=c1[nH]cc(C(c2cccc(Cl)c2)c2c[nH]c(=O)[nH]c2=O)c(=O)[nH]1 | HIV-1 subtype C | p24 antigen production, p24 ELISA |  | 62.5 µg/mL |  | inhibition | 50%
C=CC(=O)N1CCCC(n2c(=O)c3ncccc3n(Cc3ccc(Oc4ccccc4)cc3)c2=O)C1 (stereo not shown) | Tyrosine-protein kinase ABL1, non-phosphorylated (ABL1, Homo sapiens, UniProt P00519, Q252H) | cell-free assay, competition with immobilised ligand |  | 1 µM |  | remaining binding | 95%
CC1=C[C@@H](O/C=C2/C(=O)O[C@H]3c4ccccc4C[C@@H]23)OC1=O | Arabidopsis thaliana |  | htl-3 mutant |  |  | maximum germination | 10%
CCC(C)n1ncn(-c2ccc(N3CCN(c4ccc(OCC5COC(Cn6cncn6)(c6ccc(Cl)cc6Cl)O5)cc4)CC3)cc2)c1=O (mixture of isomers) | Trypanosoma cruzi | reporter mRNA translation, inhibitor, item: Renilla luciferase mRNA | cell-free extract | concentration not given | baseline: positive over negative control | translation activity | 95.3% and 140%
COc1nc(C(=O)Nc2ccc(C(=O)O)nc2OC)ccc1NC(=O)c1ccc(NC(=O)[C@H](Cc2c[nH]nn2)NC(=O)c2ccc(NC(=O)/C(C)=C/c3ccc(O)cc3)cc2)cc1 | Salmonella Typhimurium | broth microdilution | TA100 |  |  | MIC | 0.5 µg/mL (≈ 0.585 µM)
C=C(NC(=O)c1csc(-c2nc3c(cc2O)-c2nc(cs2)C(=O)NC(C(C)O)C(=O)NC(=C(C)OC)c2nc(cs2)C(=O)NC2c4nc(cs4)C(=O)NC(COC(=O)c4c5c6c(cccc6n4O)COC(=O)C(OC4CC(C)(O)C(N(C)C)C(C)O4)C2OC5)c2nc-3cs2)n1)C(N)=O (stereo not shown) | Streptococcus pneumoniae |  | -4, immunocompromised mice, lung infection | bid dosing |  | lung bacterial load at ED50 | 5.25 log CFU/g
CC1=C(C)[C@@H](Oc2c(F)cc3c(C)cc(=O)oc3c2F)OC1=O | Phelipanche ramosa | stimulant |  | 1 µM | baseline: (±)-GR24 | maximum germination stimulation | 91%
COc1ccc(CNc2nc([C@H]3CC[C@H](C(=O)O)CC3)nc3sc4ccccc4c23)cc1Cl | Cryptosporidium parvum | parasite growth, immunofluorescence imaging | HCT-8, Iowa | 24.7 nM |  | inhibition | -19.4% and -14.8%
O=c1[nH]cc(C(c2ccc(Cl)cc2)c2c[nH]c(=O)[nH]c2=O)c(=O)[nH]1 | HIV-1 subtype C | p24 antigen production, p24 ELISA |  | 7.8 µg/mL |  | inhibition | < 25%
NNC(=O)c1ccncc1 | Mycobacterium marinum |  |  |  |  | MIC90 | 40 µM (≈ 5.49 µg/mL)
Cc1ccccc1C(c1c[nH]c(=O)[nH]c1=O)c1c[nH]c(=O)[nH]c1=O | HIV-1 subtype C | p24 antigen production, p24 ELISA |  | 62.5 µg/mL |  | inhibition | 35%
Cc1cccc2c1N(C(=O)n1ccnn1)CC2 | Arabidopsis thaliana |  | kai2 mutant | 3 µM |  | germination rate | 22.6%

Repeated from above:
Structure (SMILES) | tested on | test | system | setting | scale | endpoint | result
COc1nc(C(=O)Nc2ccc(C(=O)O)nc2OC)ccc1NC(=O)c1ccc(NC(=O)[C@H](Cc2c[nH]nn2)NC(=O)c2ccc(NC(=O)/C(C)=C/c3ccc(O)cc3)cc2)cc1 | Salmonella Typhimurium | broth microdilution | TA100 |  |  | MIC | 0.5 µg/mL (≈ 0.585 µM)
NNC(=O)c1ccncc1 | Mycobacterium marinum |  |  |  |  | MIC90 | 40 µM (≈ 5.49 µg/mL)
